Results of several laboratories.
Numbered parts are unrelated; each lists some results of a single study. Changes are numbered by the printed parent chain.

Set 1 — technique: universal PBM; molecule type: double-stranded DNA, one strand shown; matrix: in vitro; concentration: 600 nM; reading: higher = stronger binding; quantity: E-score
Target: Sal-like protein 4, full length isoform A (SALL4, Homo sapiens, UniProt Q9UJQ4, residues 1-1053)
Sequence of UniProt Q9UJQ4 (whole entry, looked up): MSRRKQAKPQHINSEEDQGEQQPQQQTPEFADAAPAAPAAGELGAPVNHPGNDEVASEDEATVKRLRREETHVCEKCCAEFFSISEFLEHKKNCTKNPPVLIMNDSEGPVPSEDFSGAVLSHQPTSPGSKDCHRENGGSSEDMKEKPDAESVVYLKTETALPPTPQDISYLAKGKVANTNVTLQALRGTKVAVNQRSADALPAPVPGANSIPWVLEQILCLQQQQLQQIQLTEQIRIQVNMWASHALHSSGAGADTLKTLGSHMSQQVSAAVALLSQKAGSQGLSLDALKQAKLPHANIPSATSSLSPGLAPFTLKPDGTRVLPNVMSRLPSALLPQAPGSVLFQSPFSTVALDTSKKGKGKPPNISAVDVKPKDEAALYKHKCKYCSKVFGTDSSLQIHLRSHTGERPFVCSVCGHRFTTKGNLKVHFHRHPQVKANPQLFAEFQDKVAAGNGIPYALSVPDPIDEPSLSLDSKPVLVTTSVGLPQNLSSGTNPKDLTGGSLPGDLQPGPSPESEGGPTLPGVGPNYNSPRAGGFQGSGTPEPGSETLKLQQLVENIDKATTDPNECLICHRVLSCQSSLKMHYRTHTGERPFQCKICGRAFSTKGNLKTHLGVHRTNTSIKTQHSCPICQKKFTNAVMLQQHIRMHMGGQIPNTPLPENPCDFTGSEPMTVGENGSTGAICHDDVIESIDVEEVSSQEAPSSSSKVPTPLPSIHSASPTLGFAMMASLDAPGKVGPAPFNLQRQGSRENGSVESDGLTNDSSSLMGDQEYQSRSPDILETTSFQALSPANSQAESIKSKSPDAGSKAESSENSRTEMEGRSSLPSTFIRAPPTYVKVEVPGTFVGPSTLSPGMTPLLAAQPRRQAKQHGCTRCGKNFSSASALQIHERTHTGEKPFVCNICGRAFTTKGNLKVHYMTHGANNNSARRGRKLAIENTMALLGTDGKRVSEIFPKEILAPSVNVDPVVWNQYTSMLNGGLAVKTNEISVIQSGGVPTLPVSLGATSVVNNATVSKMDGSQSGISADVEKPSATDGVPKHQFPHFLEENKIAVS
Setting: 8-mer, flanks averaged, mean of replicates
ATGGGATG: -0.0943
GCCCGTCA: -0.317
TCGTCCCA: -0.0876
GTTGCCTA: -0.133
GCTGGTAA: 0.00841
CGTGCAAG: -0.0994
CATCCTAA: 0.0187
GACCTGGA: -0.167
TGTGACAA: 0.0531
CATGAGAC: 0.118
ATCCAGCA: 0.0441
ACAGTCAC: -0.0586
GCAGGTCC: -0.265
CGAGGCCC: -0.308
ATGTAGTA: 0.253
CTTACAAG: 0.107
ACGCTAAG: -0.142
ACAGACCA: -0.117
ATTCTAAC: 0.241
GGAAGCCA: -0.131
AGTTCCCA: -0.0609
GCGATTTA: 0.131

Set 2 — target: UBE2T UBC core domain (UniProt Q9NPD8); technique: yeast two-hybrid; matrix: yeast; setting: mostly zero background; relative to: not given; reading: higher = stronger interaction; quantity: lacZ reporter activity
B1: RC3H2 RING domain (UniProt Q9HBD1); chain QAAQWTEFLSCPICYNEFDENVHKPISLGCSHTVCKTCLNKLHRKACPFDQTAINTDIDVL
B2: TRIM72 RING domain (UniProt Q6ZMU5); chain APGLLHQELSCPLCLQLFDAPVTAECGHSFCRACLGRVAGEPAADGTVLCPCCQAPTRPQALST
Target sequence (chain): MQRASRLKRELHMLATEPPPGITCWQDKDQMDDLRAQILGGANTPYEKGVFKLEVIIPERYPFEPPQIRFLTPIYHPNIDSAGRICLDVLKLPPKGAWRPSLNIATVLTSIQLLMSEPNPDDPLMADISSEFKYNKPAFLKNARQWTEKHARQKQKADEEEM
VTLSLTLPITCHICLGKVRQPVICINNHVFCSICIDLWLKNNSQCPACRVPITPENPCK (OBI1 RING domain (UniProt Q5W0B1)): 0
PEELQAMDNVCIICREEMVTGAKRLPCNHIFHTSCLRSWFQRQQTCPTCRMDVLRASLPA (SYVN1 RING domain (UniProt Q86TM6)): 0
KTLSRFGIQPCSICLGDAKDPVCLPCDHVHCLRCLRAWFASEQMICPYCLTALPDEFSPA (RNF213 RING domain (UniProt Q63HN8)): 0
B1 (RC3H2 RING domain): 0
QLRRLQEERTCKVCMDKEVSVVFIPCGHLVVCQECAPSLRKCPICRGIIKGTVRTF (BIRC2 RING domain (UniProt Q13490)): 0
QLQDIKEQTMCPVCLDRLKNMIFLCGHGTCQLCGDRMSECPICRKAIERRILLY (MIB1 RING domain (UniProt Q86YT6)): 12600
B2 (TRIM72 RING domain): 0
EDEVSDNSAECVVCLSDVRDTLILPCRHLCLCNTCADTLRYQANNCPICRLPFRALLQIR (RNF157 RING domain (UniProt Q96PX1)): 0
DDENSDNSNECVVCLSDLRDTLILPCRHLCLCTSCADTLRYQANNCPICRLPFRALLQIR (MGRN1 RING domain (UniProt O60291)): 0
YWAMDSTFELCKICAESNKDVKIEPCGHLLCSCCLAAWQHSDSQTCPFCRCEIKGWEAVS (CBLC RING domain (UniProt Q9ULV8)): 0

Set 3 — target: CCNE1, cyclin fold, Cln2 fusion (human); technique: yeast growth competition, sequencing; matrix: yeast; setting: weak parent motif; relative to: not given; reading: higher = stronger binding; quantity: normalised enrichment score
Parent: PKN2 docking peptide (human); VSAVQKLDFSDTM
M13R: 0.814
L7Y: -0.252
T12W: 2.13
V1W: 0.593
K6H: -0.642
M13D: 1.21
T12S: 0.825
S10I: 0.778
K6N: 0.828

Set 4 — technique: DHFR PCA, deep sequencing; matrix: yeast; together with: (+)-ABA 4.8 µM; relative to: wild-type fitted maximum; reading: higher = stronger binding; quantity: relative binding score
Target: ABI1, truncated, D143A, DHFR fusion (Arabidopsis thaliana)
Setting: methotrexate growth selection, single substitutions
Parent: PYL1, truncated, DHFR fusion (Arabidopsis thaliana); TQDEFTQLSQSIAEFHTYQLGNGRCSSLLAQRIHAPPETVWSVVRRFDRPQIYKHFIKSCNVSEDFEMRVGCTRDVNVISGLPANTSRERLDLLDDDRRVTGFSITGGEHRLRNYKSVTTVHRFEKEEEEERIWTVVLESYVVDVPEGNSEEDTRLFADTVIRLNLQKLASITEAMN
P146C: 8.21%
R45V: -1.86%
S26N: 41.2%
L29I: 69.8%
Q31S: -8.36%
T73G: 4.87%
T119V: 14.4%
V100W: -11.9%
E89V: 3.25%
R74I: 8.74%
E109D: 114%
F66E: 49.1%
F5P: 46.2%
R90Y: -4.85%
S104T: 73.8%
R24V: 61.1%
T135V: -0.00712%
M176L: 69.2%
E151M: 61.5%
V145R: 4.4%
Q51N: 43.1%
R155S: 6.46%

Set 5 — technique: protein binding microarray; molecule type: double-stranded DNA, one strand shown; matrix: in vitro; concentration: not given; relative to: not given; reading: higher = stronger binding; quantity: E-score
Target: Histone acetyltransferase KAT6A, winged helix 1, GST fusion (KAT6A, Homo sapiens, UniProt Q92794, residues 1-85)
Setting: 8-mer, flanks averaged, mean of 2 arrays, mostly near background
Target sequence (chain): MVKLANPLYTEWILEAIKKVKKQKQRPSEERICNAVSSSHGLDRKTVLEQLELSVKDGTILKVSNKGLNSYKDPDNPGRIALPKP
ATCGTAAG: 0.0422
CTACAGGC: 0.000595
CGGGGTAA: 0.129
ACATGGCT: -0.112
CTAAAAGC: 0.0764
CCGCGTAC: 0.319
CCAGGGAC: -0.14
TCTCTACA: -0.29
GGTGGGTA: -0.05
GCTGGAAC: 0.0148
CTCCGCCA: 0.137
AAGTCCGC: 0.294
AAATTAAT: -0.115
ACGAATGA: -0.236
ACAATGGT: -0.0977
ACCAGTGA: -0.171
CGTTACTC: -0.0362
TCGACCCA: -0.237
ATCTAAAC: -0.0822
CCCTCGTA: 0.108
CTCCAATA: -0.119
CCTGTAGC: -0.0683
ATTGTATG: -0.137

Set 6 — technique: competition protein-binding microarray; molecule type: double-stranded DNA, one strand shown; matrix: in vitro; concentration: 2 µM; together with: Pho4 competitor, 0.05 µM; reading: higher = stronger binding; quantity: fluorescence intensity; constant ends, left off below: … GTCTTGATTCGCTTGACGCTGCTG
Target: Centromere-binding protein 1, full length, His-tagged (CBF1, Saccharomyces cerevisiae, UniProt P17106, residues 1-351)
Sequence of UniProt P17106 (whole entry, looked up): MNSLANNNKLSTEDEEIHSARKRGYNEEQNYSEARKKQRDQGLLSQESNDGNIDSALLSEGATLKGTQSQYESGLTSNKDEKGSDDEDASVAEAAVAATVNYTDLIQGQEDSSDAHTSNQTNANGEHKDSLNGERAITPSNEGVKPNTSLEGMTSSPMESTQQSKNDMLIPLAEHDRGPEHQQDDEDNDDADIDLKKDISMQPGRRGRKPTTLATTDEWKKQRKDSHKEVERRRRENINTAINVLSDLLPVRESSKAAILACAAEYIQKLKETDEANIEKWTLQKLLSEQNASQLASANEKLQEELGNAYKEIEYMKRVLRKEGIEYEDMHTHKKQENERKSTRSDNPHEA
Setting: whole 60-bp probe, lowest competitor level
ATGGCCGCTGGTCCTCACGTGTATATATGGAGGGAG: 1170 a.u.
TTCGGGACATCTTGTCATGCTCCTCGCAATTCACTC: 90.1 a.u.
GTCGTTATGGGAACAGACGTGATGGCTATCCTAGAA: 67.9 a.u.
CTTCTGTAAATTTGTCACGTGGGTGGACGCGCCCCG: 4600 a.u.
ATCCCTTGCCCAAAGGGCGTGCAAACCGAGTCTAGC: 67.3 a.u.
CGGGGTTAAGTTTGACACGTGGGTGGCTTGCAGCAG: 827 a.u.
GGTGGTTATGGCTGGGTCGTGACGAACTGTGTGTTC: 109 a.u.
CTCTTGGTTTACTGTCACATGGAGAACCTTTACTGG: 473 a.u.
CTATTGATGAACAATCACGGCCTCTTGGCTAAGCCC: 70.7 a.u.
GTCTTGTCTCATTGGCTGGTGGGTGTCCCCACTTCA: 79.7 a.u.
TCATCTCTAAGAGTTGCCGTGCCGATCCATCCGCTT: 68.5 a.u.
CGGGGTTAAGTTTGAATGGTGGGTGGCTTGCAGCAG: 66.9 a.u.
AAGATAGGATTGAACATCGTGCAAACAATGGCCAGC: 91 a.u.
TGCGCAACAACTTAGCACGTGTTTTTATGTCTAGAA: 2480 a.u.
CGTCCTAGTGATTGTCACGTCACTTCCATGAGGAAG: 130 a.u.
CAACTTTTACGAATTCTCGTGCAAATTTTCAGCGAT: 121 a.u.
TTCATCGAATGCTTGCGCATGCCAATGCACAGACAA: 69.3 a.u.
CGTCCTAGTGATTGTCACATTACTTCCATGAGGAAG: 123 a.u.
CCATACGTTTACGTAGGCGTGCTTTTTTCAAAGAGT: 106 a.u.
GACACATCTCTGAGCAGCATGACAGGGTTGTCCCAA: 83.2 a.u.
CGGGGTTAAGTTTGAGTGGTGGGTGGCTTGCAGCAG: 71.6 a.u.
ATTTGGCGAACTGTGAACGTGCGGAGGGCAGAATCC: 82.5 a.u.
TGAACCCCAACCTCATGTGTGACGGCTCTTCTCCCG: 67.9 a.u.
AGGGCTCAGAACCTGCAGGTGAAGAAGCGCTTTAGA: 56.4 a.u.
TGTCGTTTGGTTATTGTCGTGGGTATGCTTCTATGT: 80.1 a.u.

Set 7 — technique: RNA Bind-n-Seq; molecule type: RNA; matrix: in vitro; concentration: 365 nM; relative to: no-protein control; reading: higher = stronger binding; quantity: RBNS enrichment (R)
Target: RNA binding protein fox-1 homolog 2, RRM domain, GST-SBP tag (RBFOX2, Homo sapiens, UniProt O43251-10, residues 100-194)
Setting: natural RNA segment, single round, ends assumed
Constant ends, left off below: GGGAGUUCUACAGUCCGACGAUC … UGGAAUUCUCGGGUGCCAA
Target sequence (chain): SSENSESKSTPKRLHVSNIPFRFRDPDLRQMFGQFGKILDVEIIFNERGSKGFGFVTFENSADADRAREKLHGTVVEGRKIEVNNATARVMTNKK
GAUUGGUGGGCAGGUAGGGAAGACAUUGAGCAGACAGUGUCCGCUCAGUUGUCCUUCCCUCCCUUCCAAGGUCCCUCCCUCUUUCCAGGACAUCGCCCCCCCACCCCACC: 0.158
AUAUAUGUAUGUAUAUAUAUAUAUGAAAAUAUAUAUAUAUAUGAAAAAUAAAGCUUAAUUGUCCCAGAAUCAUACAUUGCUUUUUAUUCAUCAUGGGUACCACAGGAACC: 2.06
AAAUCCUUGGAUAUUUUUAGAAGUCUGUAACUUUACACAAAUAAUGAAAUAAUUUUUAAUUCAAAGUUUCUCACCCUACUUGUUAAUUUGCCCCCAAGGAAAGUUGUUUU: 0.836
UCUGACACUAAAACACCUCAGCUGCCUCCCCAGCUCUAUCCCAACCUCUCCCAACUAUAAAACUAGGUGCUGCAGCCCCUGGGACCAGGCACCCCCAGAAUGACCUGGCC: 0.886
CCCCAAACUCAGAUCCAGGUAUGAUAGUUUAUGCCUAUAAUCCCAGCACCAGGGAAGCUAAGGUGGAAGGUUGUUUGAGUUUGGAACUGGGCUAGAGAGUGAGUUAUUGC: 0.738
AAUUGUAUCCUGGUUUCCCCAUCUCCUUAUCCUGAUUUCUCAUUGCUCUUCUGUCCUGCCUCACUGUAACUGCCUCCAUUCUGUGCAGUCUACAGUAAGAAUGCCUGCUU: 0.648
CCGGAGUGCUGGCUCUCACAGUGAAUUUUGAUGCAUUUAAAAUAAGAUUCUGAUGCCAGACUGUUAAAACAGGCGCUGGUUCUGAAGCACCGAUGGAAACAGAUUGAUGC: 1.04
CGUGGCACUUGUAACUCACCGUGCUGUCUUCUGGUCUGUGUGUGUUCUUCAAGCCAGCUCUAGGCUUCAGGCCGAGCCAGGUUCACACUCAGAAAGAGGUCUCCCCAUCC: 0.268
CCAUGUGGCUGUGAAUACAUACUAUGGGAUGGGAUUCAACCCUUCUAAGUAAAUCCUCAGUCUGGUCUAUAUUGUUACUUGCCUGUUUCCACUAGAAGGAGUCACCCAGG: 0.371
UCAUAGUGAGGUCUCCAGCUAUGUACAUGCCGUCAGUCCUCUGGUCUCUUGAAUGUAGCCCCACCCUGUAGGUCCUCUCAAAGCCAGAGCCCUGUUCUUAAAUUACUAGU: 0.345
UGUUCUUAAAGCAUUAUUUACAGUAGGAACUGGGGAGUAAAUCUGUUCCCUACAGUUUGCUGCUGAGCUGGAAGCUGUGGGGGAAGGAGUUGACAGGUGGGCCCAGUGAA: 0.51
CUACUGUCUGUUGGUUCCAAUAUUCUCCCACUGCUAGAGCUUCCUGUUAAGCAAGUGUGAUCUGCAACAUUUUUUCAACUUUUGCUAGCACUGUAUACUAUUGCAUUCUU: 1.36
